Published values collected from several papers.
Protocols differ between the studies behind these lines.
CDK3 with cyclin E: Cyclin-dependent kinase 3, with cyclin E (CDK3, Homo sapiens, UniProt Q00526)
UniProt Q00526, sequence (whole entry, looked up): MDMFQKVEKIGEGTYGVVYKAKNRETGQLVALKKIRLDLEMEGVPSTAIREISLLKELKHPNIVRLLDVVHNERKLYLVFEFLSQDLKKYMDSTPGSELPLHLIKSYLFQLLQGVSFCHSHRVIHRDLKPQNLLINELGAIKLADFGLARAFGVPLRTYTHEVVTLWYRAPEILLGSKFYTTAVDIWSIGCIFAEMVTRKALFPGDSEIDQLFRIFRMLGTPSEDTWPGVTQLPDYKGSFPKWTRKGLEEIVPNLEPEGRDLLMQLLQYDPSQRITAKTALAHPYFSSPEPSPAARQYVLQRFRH
CDK3: Cyclin-dependent kinase 3 (CDK3, Homo sapiens, UniProt Q00526)

COc1cc(F)ccc1-c1ncnc(Nc2cccc(C[S@](C)(=N)=O)c2)n1 gave a remaining activity of 10% (CDK3 with cyclin E; kinase activity; 10 µM, together with: 10 µM ATP).
The remaining activity of CCN(CC)c1ccc(C2=NNC(=O)CC2C)cc1[N+](=O)[O-] (stereo not drawn) is reported as 98% (CDK3 with cyclin E; enzyme activity, inhibitor; 10 µM; reference: vehicle).
For Cc1cc(Nc2cc(N3CCN(C)CC3)nc(Sc3ccc(NC(=O)C4CC4)cc3)n2)[nH]n1, the remaining activity was 104% (CDK3 with cyclin E; kinase activity, KinaseProfiler; 0.03 µM, species human; reference: control).
With C=CC(=O)N1CCC(C(=O)NCC(=O)N2CCN(c3nc(-c4cnc(N)nc4C(F)F)nc(N4CCOCC4)n3)CC2)CC1 the remaining binding was 95% (CDK3; KINOMEscan; 1 µM).
With CCCOc1ccc(OC)c(F)c1C(=O)c1ccc(C(=O)N[C@@H]2CNC[C@H]2NC(=O)c2ccc3[nH]ncc3c2)cc1 the remaining activity was 72% (CDK3 with cyclin E; enzyme activity; 10 µM).
COc1cc(N2CCN(C)CC2)ccc1Nc1nc(N)n(C(=S)NCc2c(Cl)cccc2Cl)n1 gave a remaining activity of 19% (CDK3; enzyme activity; 10 µM; reference: control).
With C[C@@H](c1ccc(-n2cnc3c(N)ncnc32)cc1)N1CCc2nn(C)c(Cc3ccccc3)c2C1=O the remaining binding was 86% (CDK3; KINOMEscan; 0.1 µM; reference: DMSO control).
For C=CC(=O)N1CCC(COCC(=O)N2CCN(c3nc(-c4cnc(N)nc4C(F)F)nc(N4CCOC[C@@H]4C)n3)CC2)CC1, the remaining binding was 84% (CDK3; KINOMEscan; 1 µM; reference: DMSO control).
The remaining activity of CNc1ncc2c(/C=C/C(=O)N3CCC(OC)CC3)nn(Cc3cccc(C(F)(F)F)c3)c2n1 is reported as 87% (Cyclin-dependent kinase 3, with cyclin C (CDK3, Homo sapiens, UniProt Q00526); kinase activity, inhibitor; 1 µM; reference: untreated control).

Some of these lines once more:
With CCCOc1ccc(OC)c(F)c1C(=O)c1ccc(C(=O)N[C@@H]2CNC[C@H]2NC(=O)c2ccc3[nH]ncc3c2)cc1 the remaining activity was 72% (CDK3 with cyclin E; enzyme activity; 10 µM).
